Earlier results that unrelated publications cite.
Lines come from different studies, so protocols differ. ≈ marks a conversion by molar mass, not a printed value.

COc1ccccc1Oc1cccc(CN2CCC(NC(=O)C(CCN3CCCC3)c3ccccc3)CC2)c1 (stereo not shown)
EC50 (human CCR8 F84A mutant (TM2); IP accumulation, agonist): 4.8 nM

CC(C)(C)c1ccc(CNC(=O)Nc2cccc3cnccc23)cc1
IC50 (TRPV1; calcium flux, antagonist; HEK293; added: capsaicin): 3 nM

Cc1cnc(N2CC3(CCOCC3)C2)c(C(=O)Nc2ccc(C(=O)N3CCc4cc(C(=O)Nc5c(C)cccc5F)sc4-c4ccccc43)cc2)c1
IC50 (respiratory syncytial virus; viral load; A2, air-liquid interface culture; AUC day 3-10 post infection): 0.0568 µg/mL

O=C(NCC(Cc1cccc(C(F)(F)F)c1)c1ccc(F)cc1)Nc1cccc2cnccc12 (stereo not shown)
IC50 (TRPV1; calcium flux, antagonist; HEK293; added: capsaicin): 19 nM

COc1ccccc1Oc1cccc(CN2CCC(NC(=O)C3CC(=O)Nc4ccccc43)CC2)c1 (stereo not shown)
EC50 (human CCR8 K195A mutant (TM5); IP accumulation, agonist): 62 nM

CCCCCc1ccc(C(=O)Nc2cccc3cnccc23)cc1
IC50 (TRPV1; calcium flux, antagonist; HEK293; added: capsaicin): 2.4 nM

CNC(C)C1CCC(N)C(OC2C(N)CC(N)C(OC3OCC(C)(O)C(NC)C3O)C2O)O1 (stereo not shown)
MIC (Klebsiella oxytoca; clinical isolate RKI 52/07): 2 µg/mL (≈ 4.19 µM)

Nc1cc(C(F)(F)F)c(-c2nc(N3CCOCC3)nc(N3CCOCC3)n2)cn1
GI50 (U-87 MG): 1480 nM

COc1ccccc1Oc1cccc(CN2CCC3(CC2)C(=O)NCN3CCc2ccccc2)c1
EC50 (human CCR8 Y42A mutant (TM1); IP accumulation, agonist): 158 nM

C[C@H]1COCCN1c1nc(-c2cnc(N)cc2C(F)F)nc(N2CCOCC2)n1
GI50 (Daoy): 366 nM

CC1(C)S[C@@H]2[C@H](NC(=O)[C@H](N)c3ccccc3)C(=O)N2[C@H]1C(=O)O
MIC (Escherichia coli; clinical isolate RKI-No_583/16): > 16 µg/mL

FC(F)(F)c1ccc(Nc2nc(N3CCN(C4CCC4)CC3)nc3c2CCN(c2ncccc2C(F)(F)F)CC3)cc1
IC50 (TRPV1; calcium flux, antagonist; HEK293; added: capsaicin): 24 nM

Cc1c(C#N)cccc1[C@@H](C)Nc1nnc(C)c2cnc(N3CCOCC3)cc12
IC50 (NCI-H211; 3D cell viability; 14 d): > 1000 nM

Excerpt of the above:
COc1ccccc1Oc1cccc(CN2CCC(NC(=O)C3CC(=O)Nc4ccccc43)CC2)c1 (stereo not shown)
EC50 (human CCR8 K195A mutant (TM5); IP accumulation, agonist): 62 nM
